{"data": "Experimental data gathered from unrelated publications", "note": "Each numbered part is a random draw from the data of one study; scales do not carry over between parts."}
{"data": "Block 1", "target": "RNA binding protein fox-1 homolog 2, RRM domain, GST-SBP tag (RBFOX2, Homo sapiens, UniProt O43251-10, residues 100-194)", "technique": "RNA Bind-n-Seq", "form": "RNA", "sample": "in vitro", "tested at": "365 nM", "notes": "natural RNA segment, single round, ends assumed", "relative to": "no-protein control", "direction": "higher = stronger binding", "all sequences stand within": "GGGAGUUCUACAGUCCGACGAUC … UGGAAUUCUCGGGUGCCAA", "Residues (chain)": "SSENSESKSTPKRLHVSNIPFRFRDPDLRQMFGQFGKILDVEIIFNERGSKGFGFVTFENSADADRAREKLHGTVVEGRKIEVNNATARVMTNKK"}
{"Oligonucleotide": "AGCCUAUAUCAGUCAUUUUAGUGUCUGACCUAAUGCUUGGCACUGUCAGUGCUUUGUUUAGAUGAUGACUUAAGACUUUUCAGCCUGUUUUACACACCCCAGCUCCCGUU", "RBNS enrichment (R)": 0.246}
{"Oligonucleotide": "CAUGGAGAACAGGAGCCGGGCCCUGGGAUCCUUCUGUUCUGUUAAACAGAACAGAACAGCCUUUGCACUAAAUUAGUGACUCGCGCAGUGAACACAGGCUGCGAUGCUCU", "RBNS enrichment (R)": 0.373}
{"Oligonucleotide": "GGGUUCCCUCUUCACAGUCCCCGUUCCCACACUUCCUCCACCAUCACUCACUCACUGGUGCUGGCCUAGCCCCAGUUCACUCUGGUGCCACAAUAAACCUGUAUCUAGCU", "RBNS enrichment (R)": 0.586}
{"Oligonucleotide": "UUUCUUAUCCUGACCUGACCAUACUAAUAAAUAUAAUUUAUAAGCAUUGCCAUUGGAGGCUCAAUUGACUGAAAUUACUUUAACAUUUUGGAAAUUGUUAUGUAUCACUA", "RBNS enrichment (R)": 0.325}
{"Oligonucleotide": "UAACAUACAGGCAUGGGAAUCCUGCCUCUUAGCUUUUCCCACCCUCUUGUCUCACCAAGUUUUUUCUCUCCAAAGGUUUCCAGGAAUUUCUCAUUAAUGGCUGAUGCAAA", "RBNS enrichment (R)": 0.381}
{"Oligonucleotide": "CACUCUGUCCUUUCCUCACCAACUAACAUGUGCCAGCCAGGCAGAGUCUUGUGCUGUUCCCAGAACAGGACGACAGUGAAAAGAACACUCUUGACCCUACACUGAAGGCU", "RBNS enrichment (R)": 0.344}
{"Oligonucleotide": "GUCUUCAUAUUUACCUUCUGAGGUCAUUUUUUAACUUAAUGUGUUACUACAAAGAUUUGCAGAUCUUUAAUCAAGCACUAUGUUAAUACUGUAAUAUCAAAAUACUAUGU", "RBNS enrichment (R)": 0.612}
{"Oligonucleotide": "UUAAAGUCUCUUGUGUAAGAGCCAACACAUGCCCAGCUGCGGAUGGGAGCUGUUCCUGGACAGCCUUCUACUGCCUGGGAAGUGAUGGAACAGGAACUCAGGGUGCCCUU", "RBNS enrichment (R)": 0.215}
{"data": "Block 2", "target": "Histone acetyltransferase KAT6A, winged helix 2, GST fusion (KAT6A, Homo sapiens, UniProt Q92794, residues 85-181)", "technique": "protein binding microarray", "form": "double-stranded DNA, one strand shown", "sample": "in vitro", "tested at": "not given", "notes": "8-mer, flanks averaged, mean of 2 arrays, mostly near background", "relative to": "not given", "direction": "higher = stronger binding", "Construct (chain)": "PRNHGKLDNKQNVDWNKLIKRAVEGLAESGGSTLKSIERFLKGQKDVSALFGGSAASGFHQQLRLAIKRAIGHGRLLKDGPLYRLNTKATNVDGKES"}
{"Oligonucleotide": "AAAGGAAC", "E-score": 0.0203}
{"Oligonucleotide": "TCCCATAA", "E-score": -0.00223}
{"Oligonucleotide": "CTACACCC", "E-score": 0.023}
{"Oligonucleotide": "AAAGGCGA", "E-score": -0.00762}
{"Oligonucleotide": "CATAACGC", "E-score": "-7.5e-05"}
{"Oligonucleotide": "AATATAGG", "E-score": -0.00941}
{"Oligonucleotide": "CATATTCG", "E-score": -0.0211}
{"Oligonucleotide": "ATTACAGC", "E-score": 0.0183}
{"Oligonucleotide": "CCGAGCGA", "E-score": 0.257}
{"Oligonucleotide": "AGTACTCG", "E-score": -0.0447}
{"Oligonucleotide": "ATGCACGC", "E-score": -0.00413}
{"Oligonucleotide": "GCTAGAAC", "E-score": 0.00748}
{"Oligonucleotide": "CAGCTGTA", "E-score": -0.125}
{"Oligonucleotide": "CAATACCG", "E-score": -0.192}
{"Oligonucleotide": "AAGCCACA", "E-score": -0.0147}
{"Oligonucleotide": "GAGACACA", "E-score": -0.0613}
{"Oligonucleotide": "TAAGTGTA", "E-score": -0.201}
{"Oligonucleotide": "AGACTTGC", "E-score": -0.184}
{"Oligonucleotide": "CCCGCATC", "E-score": 0.126}
{"Oligonucleotide": "CTAGGCGC", "E-score": 0.0306}
{"data": "Block 3", "target": "UBE2U UBC core domain (UniProt Q5VVX9)", "technique": "yeast two-hybrid", "sample": "yeast", "notes": "mostly zero background", "relative to": "not given", "direction": "higher = stronger interaction", "B1": "NHLRC1 RING domain (UniProt Q6VVB1); chain MREAEISLLECKVCFEKFGHRQQRRPRNLSCGHVVCLACVAALAHPRTLALECPFCRRACRGCDTSD", "B2": "TRIM74 RING domain (UniProt Q86UV6); chain SLLELEDWLQCPICLEVFKESLMLQCGHSYCKGCLVSLSYHLDTKVRCPMCWQVVDGSSSLP", "B3": "TRIM2 RING domain (UniProt Q9C040); chain VRQIDKQFLICSICLERYKNPKVLPCLHTFCERCLQNYIPAHSLTLSCPVCRQTSILPEKGV", "B4": "TRIM47 RING domain (UniProt Q96LD4); chain MDGSGPFSCPICLEPLREPVTLPCGHNFCLACLGALWPHRGASGAGGPGGAARCPLCQEPFPDGLQLR", "B5": "TRIM34 RING domain (UniProt Q9BYJ4); chain ILLNVQEEVTCPICLELLTEPLSLDCGHSLCRACITVSNKEAVTSMGGKSSCPVCGISYSFEHLQA", "Construct (chain)": "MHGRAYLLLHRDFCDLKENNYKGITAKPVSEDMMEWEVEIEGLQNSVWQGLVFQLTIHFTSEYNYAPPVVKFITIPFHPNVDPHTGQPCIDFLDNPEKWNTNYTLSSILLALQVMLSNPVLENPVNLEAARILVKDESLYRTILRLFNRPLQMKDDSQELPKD"}
{"Sequence": "AAQLLEEKLTCAICLGLYQDPVTLPCGHNFCGACIRDWWDRCGKACPECREPFPDGAELR (TRIM65 RING domain (UniProt Q6PJ69))", "lacZ reporter activity": 12500}
{"Sequence": "B1 (NHLRC1 RING domain)", "lacZ reporter activity": 4190}
{"Sequence": "B2 (TRIM74 RING domain)", "lacZ reporter activity": 0}
{"Sequence": "B3 (TRIM2 RING domain)", "lacZ reporter activity": 4780}
{"Sequence": "B4 (TRIM47 RING domain)", "lacZ reporter activity": 17500}
{"Sequence": "SNNDLASLFECPVCFDYVLPPILQCQSGHLVCSNCRPKLTCCPTCRGPLGSIRNLA (SIAH1 RING domain (UniProt Q8IUQ4))", "lacZ reporter activity": 16600}
{"Sequence": "B5 (TRIM34 RING domain)", "lacZ reporter activity": 11600}
{"data": "Block 4", "organism": "Saccharomyces cerevisiae", "observed": "peptide binding", "technique": "yeast competitive growth sequencing", "form": "peptide", "strain": "cyclin F-Cln2 fusion", "tested at": "concentration not given", "notes": "RxL motif peptides", "direction": "direction not given"}
{"Sequence": "PPARRRLRLSVDE", "binding score": 8.25}
{"Sequence": "PPVKRRLDLETDH", "binding score": 6.83}
{"Sequence": "SNARRSLNFGGST", "binding score": 7.59}
{"Sequence": "PPHRRRLLFACSP", "binding score": 7.52}
{"data": "Block 5", "target": "Interferon regulatory factor 3, full length, phosphomimetic (IRF3, Homo sapiens, UniProt Q14653, residues 1-427, S386D/S396D/S398D/S402D/T404D/S405D)", "technique": "protein-binding microarray", "form": "double-stranded DNA, one strand shown", "sample": "in vitro", "tested at": "2540 nM top", "notes": "60-bp whole probe", "with": "salmon DNA 0.4 mg/ml", "relative to": "random background probes", "direction": "higher = stronger binding", "all sequences stand within": "GCCTAGCAC … GTCTTGATTCGCTTGACGCTGCTG", "sequence of UniProt Q14653 (whole entry, unmodified, looked up)": "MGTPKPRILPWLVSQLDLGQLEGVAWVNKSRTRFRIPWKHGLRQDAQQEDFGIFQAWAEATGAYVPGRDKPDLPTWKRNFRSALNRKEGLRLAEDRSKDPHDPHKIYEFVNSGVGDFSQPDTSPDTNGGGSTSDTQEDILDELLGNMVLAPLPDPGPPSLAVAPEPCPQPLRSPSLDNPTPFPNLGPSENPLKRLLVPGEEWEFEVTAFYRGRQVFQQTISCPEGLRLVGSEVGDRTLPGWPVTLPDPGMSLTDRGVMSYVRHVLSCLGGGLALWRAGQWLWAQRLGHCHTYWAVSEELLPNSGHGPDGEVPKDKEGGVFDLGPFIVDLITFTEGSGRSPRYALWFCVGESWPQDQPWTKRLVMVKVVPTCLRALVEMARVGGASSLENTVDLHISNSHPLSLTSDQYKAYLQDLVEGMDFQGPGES"}
{"Oligonucleotide": "TCGGGTCTCCCTTGAGGTTTGTGCTAG", "fitted relative affinity": "-0.0577 z-score"}
{"Oligonucleotide": "TCAAACATCCCAATGGCACTGTGCTAG", "fitted relative affinity": "-0.00958 z-score"}
{"Oligonucleotide": "GACGGTATTGGGTATCGGGACGTGCTA", "fitted relative affinity": "0.258 z-score"}
{"Oligonucleotide": "GACGACTTCGGGTATCGAGACGTGCTA", "fitted relative affinity": "-0.265 z-score"}
{"Oligonucleotide": "GCCGGTTTCGACTATCGGGACGTGCTA", "fitted relative affinity": "3.3 z-score"}
{"Oligonucleotide": "TTAGGTATCGGGACTGCGTTAGTGCTA", "fitted relative affinity": "1.06 z-score"}
{"Oligonucleotide": "TTAGGTCTCCTTCTTCTTTAGTGCTAG", "fitted relative affinity": "3.8 z-score"}
{"Oligonucleotide": "GACGATTCCAGTCTCGAGACGTGCTAG", "fitted relative affinity": "1.51 z-score"}
{"Oligonucleotide": "TTAGGTTTCGACACTGGGTAAGTGCTA", "fitted relative affinity": "2.68 z-score"}
{"Oligonucleotide": "GACGGATTCCTTCTCCTGACGTGCTAG", "fitted relative affinity": "5.24 z-score"}
{"Oligonucleotide": "GACGGACTGCTTTTCCTCACGTGCTAG", "fitted relative affinity": "0.0923 z-score"}
{"Oligonucleotide": "GACGGTATCCTTTTGCTGACGTGCTAG", "fitted relative affinity": "5.95 z-score"}
{"Oligonucleotide": "GACGACCTCAGTCTCGAGACGTGCTAG", "fitted relative affinity": "-0.117 z-score"}
{"Oligonucleotide": "GACGGTTTCGGTTTCGGCACGTGCTAG", "fitted relative affinity": "10.6 z-score"}
{"Oligonucleotide": "TTAGATCTCAGTTTCGAATAGTGCTAG", "fitted relative affinity": "2.91 z-score"}
{"Oligonucleotide": "TTATGACTGGGTCTCGGTTAGTGCTAG", "fitted relative affinity": "-0.46 z-score"}
{"Oligonucleotide": "AGTGTTACCCCTCATCAACCAGTGCTA", "fitted relative affinity": "0.551 z-score"}
{"Oligonucleotide": "GACGGACTGCTACTGCTGGCGTGCTAG", "fitted relative affinity": "-0.736 z-score"}
{"Oligonucleotide": "GTCTCTGTTCTTTTCAGTCCGTGCTAG", "fitted relative affinity": "2.54 z-score"}
{"note": "A few entries again (block 2):"}
{"Oligonucleotide": "AAAGGCGA", "E-score": -0.00762}
{"Oligonucleotide": "GAGACACA", "E-score": -0.0613}
{"Oligonucleotide": "CTACACCC", "E-score": 0.023}
{"Oligonucleotide": "CAATACCG", "E-score": -0.192}
